Measured values pooled from the literature.
Compare with care: the assays were run in different laboratories. Values joined by “and” are separate records of one study, mostly repeats; a detail may differ. ± marks the error that the study gave.
rep main protease: Replicase polyprotein 1ab, main protease (rep, Severe acute respiratory syndrome coronavirus 2, UniProt P0DTD1)

CCN(CC)CCC1(c2ccccc2)C(=O)Oc2ccccc21 (centres unmarked)
inhibition (SARS-CoV-2; viral replication; Vero E6, USA-WA1/2020; 2.5 µM): 52.8%

C=CC(=O)Nc1cccc(Nc2nc(Nc3ccc(NC4CN(CCF)C4)cc3OC)ncc2C(F)(F)F)c1
IC50 (SARS-CoV-2; viral replication; Huh-7): > 2 µM

CC[C@H](C)[C@H](NC(=O)[C@H](CC(C)C)NC(=O)[C@H](Cc1c[nH]c2ccccc12)NC(=O)[C@H](CCC(N)=O)NC(=O)[C@@H](NC(=O)[C@H](Cc1ccccc1)NC(=O)[C@H](C)NC(=O)[C@H](CCCCNC(=O)COCCOCCNC(=O)COCCOCCNC(=O)CC[C@H](NC(=O)CCCCCCCCCCCCCCCCCCC(=O)O)C(=O)O)NC(=O)[C@H](CCC(N)=O)NC(=O)[C@H](C)NC(=O)[C@@H](NC(=O)[C@H](CCCCN)NC(=O)[C@H](CC(=O)O)NC(=O)[C@H](CC(C)C)NC(=O)C(C)(C)NC(=O)[C@@H](NC(=O)[C@H](CO)NC(=O)[C@H](Cc1ccc(O)cc1)NC(=O)[C@H](CC(=O)O)NC(=O)[C@H](CO)NC(=O)[C@@H](NC(=O)[C@H](Cc1ccccc1)NC(=O)[C@@H](NC(=O)CNC(=O)[C@H](CCC(=O)O)NC(=O)C(C)(C)NC(=O)[C@@H](N)Cc1ccc(O)cc1)[C@@H](C)O)[C@@H](C)O)[C@@H](C)CC)[C@@H](C)CC)C(C)C)C(=O)N[C@@H](C)C(=O)NCC(=O)NCC(=O)N1CCC[C@H]1C(=O)N[C@@H](CO)C(=O)N[C@@H](CO)C(=O)NCC(=O)N[C@@H](C)C(=O)N1CCC[C@H]1C(=O)N1CCC[C@H]1C(=O)N1CCC[C@H]1C(=O)N[C@@H](CO)C(N)=O
subjects with adverse event (refers to: treatment-emergent catheter site erythema; healthy subjects; 4.5 mg, multiple ascending dose): 16.7%

O=C(NCCCN1CCCCC1)c1cc(Sc2ccc(Cl)cc2)nc2ccccc12
AC50 (SARS-CoV-2; cytopathic effect, cell-based CPE; USA_WA1/2020; round 2, 5-point dilution): 11.2 µM

c1ccc2c(c1)Sc1ccccc1N2CC1CN2CCC1CC2 (centres unmarked)
EC50 (SARS-CoV-2; viral replication, high-content imaging screen; cell-based): > 100 µM

O=C(O)/C(Cc1ccccc1[N+](=O)[O-])=N\Nc1nc(-c2ccc(Cl)c(Cl)c2)cs1
viral replication inhibition (SARS-CoV-2; concentration not given, Paris laboratory): inactive

CN(C)CCC(c1ccc(Cl)cc1)c1ccccn1 (centres unmarked)
IC50 (SARS-CoV-2; viral replication; Huh-7): > 2 µM

CCCN1CCN(CCCNC(=O)c2cc3c(Cl)nc4ccccc4c3s2)CC1
maximum response (SARS-CoV-2; cytopathic effect; USA_WA1/2020; retest 8-point): 74.1%

O=C1CC2(CCCC2)CC(=O)N1CCCCN1CCN(c2nsc3ccccc23)CC1
EC50 (SARS-CoV-2; viral replication, GFP plate reader screen; cell-based): > 100 µM

COc1ccc(C[C@@H]2c3cc(Oc4cc(C[C@@H]5c6cc(O)c(OC)cc6CCN5C)ccc4O)c(OC)cc3CCN2C)cc1
mean inhibition (SARS-CoV-2; cytopathic effect; Vero E6; 6.25 µM, replicate run): 0%

COc1ccc(CC(=O)NC2CCN(Cc3ccc(-c4ccccc4OC)cc3)C2)cc1 (centres unmarked)
efficacy (SARS-CoV-2; cytopathic effect; USA_WA1/2020; round 1, 5-point): 102%

O=C(CN1CCC(CN2Cc3ccccc3C2=O)CC1)c1ccc(F)cc1
IC50 (SARS-CoV-2; viral replication, anti-nucleoprotein immunostaining; Vero E6): > 10 µM

CNC(=O)[C@@H](NC(=O)[C@H](CC(C)C)[C@H](O)C(=O)NO)C(C)(C)C
viability difference (C2C12; 10 µM, with: MP venom; reference: venom alone): 41.8%

Cn1cnc(Cn2c(=O)[nH]/c(=N\c3cc4cn(C)nc4cc3Cl)n(Cc3cc(F)c(F)cc3F)c2=O)n1
patients with adverse event (human, severe renal impairment; oral, 375 mg, vessel puncture site haemorrhage TEAE, Severe severity): 0%

Cc1nn(-c2ccc(Cl)cc2)c2c1C(c1ccc(Cl)c(Cl)c1)C(C#N)=C(N)O2 (centres unmarked)
viral titre (SARS-CoV-2; Vero; 1 µM): 1.02e+06 IU/mL

Clc1ccc(-c2nn(Cc3ccccc3)c3c2CCNCC3)cc1
EC50 (SARS-CoV-2; viral replication, GFP plate reader screen; BetaCov/Belgium/GHB-03021/2020; cell-based): > 25.1 µM and > 20 µM

COc1ccc2cc1Oc1ccc(cc1)C[C@H]1c3cc(c(OC)cc3CCN1C)Oc1c(OC)c(OC)cc3c1[C@H](C2)N(C)CC3
EC90 (SARS-CoV-2; viral replication; 293T-ACE2, USA-WA1/2020): 1.87 µM

CC(C)(C)N1CCC(c2ccccc2)(c2ccccc2)CC1
efficacy (SARS-CoV-2; cytopathic effect; USA_WA1/2020; retest, 8-point, duplicates): 20.2%

CN1CCC(=C2c3ccccc3Sc3ccccc32)CC1
EC50 (SARS-CoV-2; viral replication, high-content imaging screen; cell-based): > 100 µM

Fc1ccc(-c2ccc(CN3CCN(c4cccc5ccoc45)CC3)[nH]2)cc1
inhibition (SARS-CoV-2; viral replication; Vero E6, USA-WA1/2020; 2.5 µM): 67.6%

CC(C)(C)[C@H](NC(=O)C(F)(F)F)C(=O)N1C[C@H]2[C@@H]([C@H]1C(=O)N[C@H](C#N)C[C@@H]1CCNC1=O)C2(C)C
inhibition (SARS-CoV-2; viral replication, infectious virus; Vero E6; 0.3333 µM): 108%

Cc1ccc(NS(=O)(=O)c2cccc(C(=O)NC3CCN(c4ncnc5[nH]cnc45)CC3)c2)cc1
relative infection (SARS-CoV-2; A549-ACE2, Wuhan-Hu-1; 7.407 µM; reference: untreated): 59.6%

CO[C@@H]1CC/C=C/c2cccc(c2)[C@@H](CCNC(=O)OC(C)(C)C)OC(=O)[C@@H]2CCCN(N2)C(=O)[C@H](C)NC(=O)[C@H](C(C)C)NC(=O)[C@@H]1C
viral replication inhibition (SARS-CoV-2; concentration not given, Paris laboratory): inactive

Cc1ccc(Nc2ccnc(N3CCC(C(=O)NCCCc4ccccc4)CC3)n2)cc1
AC50 (SARS-CoV-2; cytopathic effect, cell-based CPE; USA_WA1/2020): 8.91 µM

C1=C(c2ccc(CN3CCCCC3)cc2)N2CCN=C2c2ccccc21
inhibition (SARS-CoV-2; viral replication; Vero E6, USA-WA1/2020; 2.5 µM): 70.5%

CCCCc1ccc(O)cc1O
inhibition (rep main protease; reporter gene (Gaussia luciferase), inhibitor; 20 µM): 2.14%

COc1cc2c(cc1OC)CN(CCc1ccc(NC(=O)c3cc(OC)c(OC)cc3NC(=O)c3cnc4ccccc4c3)cc1)CC2
IC50 (SARS-CoV-2; viral replication, anti-nucleoprotein immunostaining; Vero E6): > 10 µM

CCc1ccc(Sc2cc(C(=O)NCCCN3CCCC(C)C3)c3ccccc3n2)cc1 (centres unmarked)
maximum response (SARS-CoV-2; cytopathic effect; USA_WA1/2020; first round 5-point): 91.6%

N=C(N)c1ccc2cc(OC(=O)c3ccc(N=C(N)N)cc3)ccc2c1
viral replication inhibition (SARS-CoV-2; Vero E6; concentration not given, NYC laboratory): inactive

CCCCc1oc2ccc(NS(C)(=O)=O)cc2c1C(=O)c1ccc(OCCCN(CCCC)CCCC)cc1
EC50 (SARS-CoV-2; viral replication, high-content imaging screen; cell-based): > 100 µM

CCN(CC)CCOCCOC(=O)C1(c2ccccc2)CCCC1
IC50 (SARS-CoV-2; viral replication; A549 expressing ACE2; inactive set pIC50 4): > 10 µM

CC(C)(C)[C@H](NC(=O)C(F)(F)F)C(=O)N1C[C@H]2[C@@H]([C@H]1C(=O)N[C@H](C#N)C[C@@H]1CCNC1=O)C2(C)C
EC90 (SARS-CoV-2; viral replication, qRT-PCR of viral RNA; Calu-3, Washington): 8.8 ± 2.8 µM

COc1ccc(Cl)cc1NC(=O)CSc1nc2ccccc2nc1N1CCCCC1
AC50 (SARS-CoV-2; cytopathic effect, cell-based CPE; USA_WA1/2020; round 1, 5-point dilution): 12.6 µM

O=C(O[C@@H]1Cc2c(O)cc(O)cc2O[C@@H]1c1cc(O)c(O)c(O)c1)c1cc(O)c(O)c(O)c1
CPE inhibition (SARS-CoV-2; viral replication; Vero E6; 12.5 µM; reference: mean of replicates): 0%

Cc1nn(-c2ccc(Cl)cc2)c2c1C(c1ccc(F)cc1F)C(C#N)=C(N)O2 (centres unmarked)
viral titre (SARS-CoV-2; Vero; 1 µM): 1.05e+06 IU/mL

O=c1[nH]c2ccccc2n1CCCN1CCN(C(c2ccccc2)c2ccccc2)CC1
EC50 (SARS-CoV-2; viral replication, GFP plate reader screen; cell-based): > 100 µM

O=C(c1ccc(OCCN2CCCCC2)cc1)c1c(-c2ccc(O)cc2)sc2cc(O)ccc12
IC50 (SARS-CoV-2; viral replication; Huh-7): > 2 µM

Cc1nn(-c2ccc(Cl)cc2)c2c1C(c1ccc(Cl)cc1Cl)C(C#N)=C(N)O2 (centres unmarked)
Ct value (SARS-CoV-2; RT-qPCR, refers to: viral RNA; Vero; 1 µM; higher means less virus): 23.4 cycles

CCc1ccc(Sc2cc(C(=O)NCCCN3CCC(C)CC3)c3ccccc3n2)cc1
maximum response (SARS-CoV-2; cytopathic effect; USA_WA1/2020; round 1, 5-point): 54.1%

COc1ccc2c(c1)CCC(c1ccccc1)=C2c1ccc(OCCN2CCCC2)cc1
EC50 (SARS-CoV-2; viral replication, GFP plate reader screen; cell-based): > 100 µM

CCCc1nc(C)c2c(=O)nc(-c3cc(S(=O)(=O)N4CCN(CC)CC4)ccc3OCC)[nH]n12
IC50 (SARS-CoV-2; viral replication; Huh-7): > 2 µM

COC(=O)[C@H]1[C@H]2C[C@@H]3c4[nH]c5cc(OC)ccc5c4CCN3C[C@H]2C[C@@H](OC(=O)c2cc(OC)c(OC)c(OC)c2)[C@@H]1OC
EC50 (SARS-CoV-2; viral replication, GFP plate reader screen; cell-based): > 25.1 µM

Cc1nn(-c2ccc(Cl)cc2)c2c1C(c1ccc(-c3ccccc3)cc1)C(C#N)=C(N)O2 (centres unmarked)
viral reduction (SARS-CoV-2; viral replication; Vero; 10 µM): 5.04%

COC(=O)C[C@H](NC(=O)OC(C)(C)C)C(=O)CF
inhibition (rep main protease; reporter gene (Gaussia luciferase), inhibitor; 20 µM): 0.66%

Nc1ncnc2c([C@@H]3N[C@H](CO)[C@@H](O)[C@H]3O)c[nH]c12
inhibition (Marburg virus; viral RNA in cell lysate; HeLa, Musoke; 100 µM, 12 h): 91.7%

CC(C)=CCc1c(O)ccc(C(=O)/C=C/c2ccc(O)cc2)c1O
CPE inhibition (SARS-CoV-2; viral replication; Vero E6; 0.7812 µM; reference: mean of replicates): 0%

CCN(CC)CCOC(=O)C(O)(c1ccccc1)c1ccccc1
IC50 (SARS-CoV-2; viral replication; Vero E6; inactive set pIC50 4): > 10 µM

O=C(/C=C/c1ccc(O)c(O)c1/C=C/c1ccc(O)c(O)c1)O[C@H](Cc1ccc(O)c(O)c1)C(=O)O
mean inhibition (SARS-CoV-2; cytopathic effect; Vero E6; 100 µM, replicate run): 75%

O=c1nc([C@@H]2CCCN2)[nH]c2c1oc1ccc(Cl)cc12
viral replication inhibition (SARS-CoV-2; concentration not given, Paris laboratory): inactive

CN1CCCC1c1cc(C(=O)N2C[C@@H](F)C[C@H]2CNC(=O)c2cc3c(=O)[nH]ccn3n2)n[nH]1 (some centres unmarked)
inhibition (rep main protease; inhibitor, high-throughput enzymatic; 5 µM, mean of runs): 11.1%

For quick reference, copied from above:
O=C(NCCCN1CCCCC1)c1cc(Sc2ccc(Cl)cc2)nc2ccccc12
AC50 (SARS-CoV-2; cytopathic effect, cell-based CPE; USA_WA1/2020; round 2, 5-point dilution): 11.2 µM

c1ccc2c(c1)Sc1ccccc1N2CC1CN2CCC1CC2 (centres unmarked)
EC50 (SARS-CoV-2; viral replication, high-content imaging screen; cell-based): > 100 µM

O=C(O)/C(Cc1ccccc1[N+](=O)[O-])=N\Nc1nc(-c2ccc(Cl)c(Cl)c2)cs1
viral replication inhibition (SARS-CoV-2; concentration not given, Paris laboratory): inactive
